Experimental data collected from several papers.
Protocols differ between the studies behind these lines. Numbers after ± are the reported error.

NC12CNCCNCC(NCc3ccc(CNC(=O)CCCC(=O)NCc4ccc(-c5nncnn5)cc4)cc3)(CNCCNC1)CNCCNC2.[64Cu+2] — tissue uptake (biodistribution; healthy athymic nude mice, kidneys; 1 h p.i.): 2.3 ± 0.4 %ID/g
CCCC[C@@H]1NC(=O)[C@@H](NC(=O)[C@H](CCC(=O)O)NC(=O)CNC(=O)CN2CCN(CC(=O)O)CCN(CC(=O)O)CCN(CC(=O)O)CC2)CCCCNC(=O)C[C@@H](C(N)=O)NC(=O)[C@H](C(C)C)NC(=O)[C@@H]2CCCN2C(=O)[C@H](CCCNC(=N)N)NC(=O)CNC(=O)[C@H](Cc2c[nH]c3ccccc23)NC(=O)[C@H](CCCNC(=N)N)NC(=O)[C@@H](Cc2ccccc2)NC(=O)[C@H](Cc2c[nH]cn2)NC(=O)[C@H](CCC(=O)O)NC1=O [gallium-67 labelled] — tissue uptake (C57 mice with B16/F1 melanoma, lung; intravenous, 24 h): 0.1 ± 0.06 %ID/g
O=C(O)C1CN(Cc2ccc(-c3noc(-c4ccc(OCC[18F])c(C(F)(F)F)c4)n3)cc2)C1 — tissue uptake (male Sprague-Dawley rat, liver; intravenous, 120 min): 3.35 ± 0.772 %ID/g
CCCC[C@H](NC(=O)CNC(=O)CNC(=O)CN1CCN(CC(=O)O)CCN(CC(=O)O)CC1)C(=O)N[C@H]1CC(=O)NCCCC[C@@H](C(N)=O)NC(=O)[C@H](Cc2c[nH]c3ccccc23)NC(=O)[C@H](CCCNC(=N)N)NC(=O)[C@@H](Cc2ccccc2)NC(=O)[C@H](Cc2c[nH]cn2)NC1=O [copper-64 labelled] — tissue uptake (C57 mouse B16/F1 melanoma, stomach; 4 h): 1.02 ± 0.17 %ID/g
CC(C)[C@H](NC(=O)[C@@H]1CCCN1C(=O)[C@H](CCCNC(=N)N)NC(=O)[C@H](CS)NC(=O)[C@H](Cc1c[nH]c2ccccc12)NC(=O)[C@H](CCCNC(=N)N)NC(=O)[C@@H](Cc1ccccc1)NC(=O)[C@H](Cc1c[nH]cn1)NC(=O)[C@H](CCC(=O)O)NC(=O)[C@H](CS)NC(=O)[C@H](CS)NC(=O)[C@@H]1CC(=O)N[C@@H](CCCNC(=N)N)C(=O)NCC(=O)N[C@@H](CC(=O)O)C(=O)N[C@H](Cc2ccc(O)cc2)C(=O)N1)C(N)=O [technetium-99m labelled] — tissue uptake (C57 mouse, female, B16/F1 melanoma, bone; intravenous, 0.037 MBq, 0.5 h): 3.03 ± 0.97 %ID/g
CCN(CC)c1ccc2c(-c3ccccc3C(=O)OCCOCCOCC[18F])c3ccc(=[N+](CC)CC)cc-3oc2c1 — tissue uptake (rat, spleen; 60 min): 0.83 ± 0.1 %ID/g
CCCC[C@H](NC(=O)CNC(=O)CNC(=O)CN1CCN(CC(=O)O)CCN(CC(=O)O)CCN(CC(=O)O)CC1)C(=O)N[C@H]1CC(=O)NCCCC[C@@H](C(N)=O)NC(=O)[C@H](Cc2c[nH]c3ccccc23)NC(=O)[C@H](CCCNC(=N)N)NC(=O)[C@@H](Cc2ccccc2)NC(=O)[C@H](Cc2c[nH]cn2)NC1=O [copper-64 labelled] — tissue uptake (female C57 mouse, B16/F1 melanoma, liver; intravenous, 0.037 MBq, 0.5 h): 11.6 ± 1.77 %ID/g
O=C([O-])CN1CCN(CC(=O)[O-])CCN(CC(=O)NCCc2ccc3c(c2)C2C=CCC2C(c2cc4c(cc2Br)OCO4)N3)CCN(CC(=O)[O-])CC1.[111In+3] (centres unmarked) — tissue uptake (mice with Hec50 tumour xenograft, large intestine; 2 h, added: G-1 5 µg blocking): 20.1 ± 3.19 %ID/g
CC(C)[C@H](NC(=O)[C@@H]1CCCN1C(=O)[C@H](CCCNC(=N)N)NC(=O)[C@H](CS)NC(=O)[C@H](Cc1c[nH]c2ccccc12)NC(=O)[C@H](CCCNC(=N)N)NC(=O)[C@@H](Cc1ccccc1)NC(=O)[C@H](Cc1c[nH]cn1)NC(=O)[C@H](CCC(=O)O)NC(=O)[C@H](CS)NC(=O)[C@H](CS)NC(=O)CNC(=O)[C@@H]1CC(=O)N[C@@H](CCCNC(=N)N)C(=O)NCC(=O)N[C@@H](CC(=O)O)C(=O)N[C@H](Cc2ccc(O)cc2)C(=O)N1)C(N)=O [technetium-99m labelled] — tissue uptake (C57 mouse, female, B16/F1 melanoma, spleen; intravenous, 0.037 MBq, 2 h): 0.94 ± 0.31 %ID/g
CCCC[C@H](NC(=O)CNC(=O)CNC(=O)CN1CCN(CC(=O)O)CCN(CC(=O)O)CCN(CC(=O)O)CC1)C(=O)N[C@H]1CC(=O)NCCCC[C@@H](C(N)=O)NC(=O)[C@H](Cc2c[nH]c3ccccc23)NC(=O)[C@H](CCCNC(=N)N)NC(=O)[C@@H](Cc2ccccc2)NC(=O)[C@H](Cc2c[nH]cn2)NC1=O [gallium-67 labelled] — tissue uptake (C57 mice, female, B16/F1 melanoma, intestines; intravenous, 0.037 MBq, 0.5 h): 1.6 ± 0.3 %ID
CN1C(=O)[C@@H](Cc2ccc(O)c(I)c2)NC(=O)CNC(=O)[C@H](Cc2ccc3ccccc3c2)NC(=O)[C@H](CCCNC(=N)N)NC(=O)[C@H]1CCCNC(=O)c1ccc(CNC(=O)CN2CCN(CC(=O)O)CCN(CC(=O)O)CCN(CC(=O)O)CC2)cc1 [lutetium-177 labelled] — tissue uptake (measured: 177Lu radioactivity; female CB-17 SCID mice, Daudi xenograft, spleen; intravenous, 0.16 nmol per mouse, 48 h): 1.58 ± 0.33 %ID/g

A few entries again:
CCCC[C@H](NC(=O)CNC(=O)CNC(=O)CN1CCN(CC(=O)O)CCN(CC(=O)O)CCN(CC(=O)O)CC1)C(=O)N[C@H]1CC(=O)NCCCC[C@@H](C(N)=O)NC(=O)[C@H](Cc2c[nH]c3ccccc23)NC(=O)[C@H](CCCNC(=N)N)NC(=O)[C@@H](Cc2ccccc2)NC(=O)[C@H](Cc2c[nH]cn2)NC1=O [gallium-67 labelled] — tissue uptake (C57 mice, female, B16/F1 melanoma, intestines; intravenous, 0.037 MBq, 0.5 h): 1.6 ± 0.3 %ID
